Results gathered from unrelated publications.
Parts stem from different laboratories: compare values within a part only.

Sample 1
Target: Fragile X messenger ribonucleoprotein 1, C-terminal low-complexity region (Fmr1, Mus musculus, UniProt P35922)
Technique: RNA Bind-n-Seq
Form: RNA
Matrix: in vitro
Tested at: 200 nM
Setting: whole 134-nt RNA, ends assumed
Together with: 150 mM KCl
Relative to: input library
Direction: higher = stronger binding
All sequences stand within: GGGAGUUCUACAGUCCGACGAUC … UGGAAUUCUCGGGUGUCAAGG
Sequence	log2 enrichment
AAGAUUUAGAGAUGAAUUAAAUUUAAUUAGGGGUUGCUAAGAAGCGAGCACUGACCAGAUAAGAAUGCUGGUUUUCCUAAAUGCAGUGAA	-0.499
AGUCCUGUGCUACACAUCGUAUGUACCGAAUCGGGAAAGGGUUUUUUUGGGAAAGGGAAAGUAUUAUGUUACGCCGUUCGGAUCUGCACU	0.0726
AAGUCCUGUGCUACACAUCGUAUGUACCGAAUCGGGGAGGGGUUUGGGGAAAGGGGAAAGUAUUAUGUUACGCCGUUCGGAUCUGCACUU	0.897
CUGUGCUACACAUCGUAUGUACCGAAUCGGGGAAAGGGGUUUUUUUGGGGUUUUUUUGGGGAAAGUAUUAUGUUACGCCGUUCGGAUCUG	-0.0435
CUCAAGUCCUGUGCUACACAUCGUAUGUACCGAAUCGGGAAGGGGAAGGAAGGGAAAGUAUUAUGUUACGCCGUUCGGAUCUGCACUUCC	-0.0802
UGGGGUAGACCAGUUCCAUGGCACUGAAUAUGUGUGCUGCCCUCAGACAAAGAUUAUUGGAUCUGUGUCAAAAGAAGAGGAAGAGGAAGA	-1.2
AGUCCUGUGCUACACAUCGUAUGUACCGAAUCGGGGCCCCGGGGCCCCGGGGCCCCGGAAAGUAUUAUGUUACGCCGUUCGGAUCUGCAC	0.443
CUGUGCUACACAUCGUAUGUACCGAAUCGGGGAAAAAAAGGGAAAAAAAGGAAAAAAAGGGAAAGUAUUAUGUUACGCCGUUCGGAUCUG	-1.02
UCAAGUCCUGUGCUACACAUCGUAUGUACCGAAUCGGUUUUUGGUGGAAAAAGGAAAGUAUUAUGUUACGCCGUUCGGAUCUGCACUUCC	-0.39
GGGUGGACACUGACGAGCUGGACAGCAACGUGGACGACUGGGAAGAGGAGACCAUUGAGUUCUUCGUCACUGAAGAAAUCAUUCCCCUCG	-0.985
CACAGACAACACGCACCCACACAGACACAGAGGGAAGGGGUUGGGAUGGGGACAGGGUGCACAGCAGGGCGGGGUAGGACCCCAGCCCCG	1.39
CACAGACAACACGCACCCACACAGACACAGAGGGAAGGGGUUGGGAUGGGGACAGGGUGCACAGAAGGGCGGGGUAGGACCCCAGCCCCU	1.25
CACAGACAACACGCACCCACACAGACACAGAGGGAAGGGGUUGGGAUGGGGACAGGGUGCACAGCAGGGCGGGGUAGGACCCGAGCCCCU	1.21
CAAGUCCUGUGCUACACAUCGUAUGUACCGAAUCGGAAAAGGAAAAGGGAAAAGGAAAGUAUUAUGUUACGCCGUUCGGAUCUGCACUUC	-0.682

Sample 2
Target: RNA binding protein fox-1 homolog 2, RRM domain, GST-SBP tag (RBFOX2, Homo sapiens, UniProt O43251-10, residues 100-194)
Technique: RNA Bind-n-Seq
Form: RNA
Matrix: in vitro
Tested at: 365 nM
Setting: natural RNA segment, single round, ends assumed
Relative to: no-protein control
Direction: higher = stronger binding
All sequences stand within: GGGAGUUCUACAGUCCGACGAUC … UGGAAUUCUCGGGUGCCAA
Residues (chain): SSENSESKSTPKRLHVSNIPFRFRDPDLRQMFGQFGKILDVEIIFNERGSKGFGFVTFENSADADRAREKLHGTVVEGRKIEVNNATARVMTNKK
Sequence	RBNS enrichment (R)
CCACGGAGUCGUGGGGUGUGCUGGGAGCUCCACUCUGCUUCUCUGACUUCUGCCUGGAGACUUAGGGCACCAGGGGUUUCUCGCAUAGGACCUUUCCACCACAGCCAGCA	0.682
CACCAGAAGCUGCCGUAGAAAGCCAUGCGCUACUGCUUACCUCCUCCACUCCCCCUGCCUGCCCCCAGCAUCUGGACAAGCUAAUAGCAAAUAUUACCCAUUGCUAUCAA	3.71
UAUGUAUGUUUUAUGUAGUCCUCCUCCUGUACCUAUUGUAUAUUUUUUUUCUAAGGUUUAAGCACAUGCCUUUUGUAUUAUGCAGUAUAUAAUGGGUGUGCAGCCAUAGC	0.942
UCUGGGGACAGCAUACACUUCUUCCCCAGCUCAGUAAUGGGUGAAGUCACUUCCGGAGGUGGUCACCUCAUAGAAUGAACAUGAUUGGUUACUGAGGGAGCCAGGCUCUG	0.551
UGAAACCUUUUCAGAAUCAUGGCAGAGGGGCGUGGCGUGGUGCUACUGAGAAGGUCCUCCUUCCUCUUGACUUUGUGGUCUGAAACCUGGUCUUACUGUCCAUGUGUGUU	0.549
UGUGUUUGAUCUCAGGAGUCCAAAAUAAGUUGUUGCUUCUAGUGUCCUGCAUUUUAUUGACUGGGGUUUGAUCUCAGCUUCUGAAAAUGUUUAAAAAUUGGAAGGAAAUA	0.331
AUAUUGAUUAAAAUGUACCACUAGAAAGGUAUUACAUGUGUAUAAGUAUGGGUAAAAAGGCAAGUCACUAGUUUGAGAUGAAAACUAAAAUUUUCAUGGUAAAAUGCCAG	0.832
UCCACCUCAGUUCCUCAGGGCUGUUGGCCACCCUAUGACUAACUGGAAGAGGACACGCCAGAGCUUCAGUGAGGUUUCCGAGCCUCUCCCUGCCCAUCCUCACCACUGAG	0.296
CCUGCCAAGCUCACACAGCAGGAACUGAGCCAGAAACGCAGAUUGGGCUGGCUCUGAAGCCAAGCCUCUUCUUACUUCACCCGGCUGGGCUCCUCAUUUUUACGGGUAAC	0.228
UCAGAUUUACACUGGCACUGUGCCCUCUACCACUAUAUGCCAAAAACUGCUUCUGUAGUACCAUUUUGAUAUUAUGUCAGUUAUACAUAAUAUCUGACUAUUGUUUUCUA	0.338
UCAGAUUUAUUUUUUAUUAAGCAUUAUACCAUGGGCUGUCCUGUGCUCCUGUCACUCUUCAAAAACACCCCUUCUAUUACUGCCUCCGGGGAUGAAGCAGUAGCUAGGUU	1.36
CAGCGAAGCUGUAACUGAGGACCCUGCUGCUCGGGAAGGAGGUGGUUUCCAGUGUGACUCGGCAUGUCAUGGCUACCCAACCUUUGCCGCUGCCUGUUCCCACGUGUCAC	1.21

Sample 3
Target: PABPC1L2, full length, GST fusion (mouse, UniProt A0ABA7IW68)
Technique: RNAcompete
Form: RNA
Matrix: in vitro
Tested at: 20 nM
Setting: 7-mer, probes averaged, single round
Relative to: mean of 7-mers
Direction: higher = stronger binding
Target sequence (chain): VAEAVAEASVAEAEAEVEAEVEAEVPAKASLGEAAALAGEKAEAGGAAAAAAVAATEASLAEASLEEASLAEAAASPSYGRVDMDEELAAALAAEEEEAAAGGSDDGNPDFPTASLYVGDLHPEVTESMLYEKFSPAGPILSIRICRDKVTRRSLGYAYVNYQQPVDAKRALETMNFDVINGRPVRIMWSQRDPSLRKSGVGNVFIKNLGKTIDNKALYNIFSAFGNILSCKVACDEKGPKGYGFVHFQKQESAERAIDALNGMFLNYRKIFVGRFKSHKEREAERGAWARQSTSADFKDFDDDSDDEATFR
Sequence	7-mer Z-score
CGUUGAA	-0.0881
GUCCCCG	-0.387
AGGCCUA	-0.153
UGGACAA	0.465
AAAUAUU	1.48
CCAGUGC	-0.219
GACCCUA	-0.171
AAAAUCA	3.8
AAUACGC	0.128
UCAUCCG	-0.383
UUAUCUG	-0.296
AAUAACA	0.452
CACAGGU	-0.117
AAGCUAG	0.187
AGCUCUA	-0.0663
CCCGUCG	-0.51

Sample 4
Target: Prothrombin, mature alpha-thrombin (F2, Homo sapiens, UniProt P00734)
Technique: aptamer microarray, sandwich
Form: DNA with 2'F-ANA
Matrix: in vitro
Tested at: 200 nM
Setting: whole 15-mer aptamer, many near background
Together with: Cy3 exosite-II aptamer, 400 nM
Direction: higher = stronger binding
Sequence: GGTTGGTGTGGTTGG
Modification	mean fluorescence intensity
2'F-ANA at 2 5 8 11 12 15	120 a.u.
2'F-ANA at 1 2 7 14	57.1 a.u.
2'F-ANA at 1 2 4 6 9 11	92.6 a.u.
2'F-ANA at 1 5 10 12 14	64 a.u.
2'F-ANA at 1 2 7 10 11 12 13	78.3 a.u.
2'F-ANA at 1 6 9 10 12 13 15	76.4 a.u.
2'F-ANA at 1 2 4 6 8 9 10 11 13 15	47.5 a.u.
2'F-ANA at 1 5 6 7 9 12 13 15	66.7 a.u.
2'F-ANA at 2 3 4 9 10 11 12 13 15	235 a.u.
2'F-ANA at 2 3 4 5 8 9 11 12 14	51.4 a.u.
2'F-ANA at 5 6 7 9 12 14 15	49.7 a.u.
2'F-ANA at 1 3 4 5 9 10 12 14 15	46.5 a.u.
2'F-ANA at 1 5 7 8 11	71.6 a.u.
2'F-ANA at 1 2 4 8 10 12	59.9 a.u.
2'F-ANA at 2 3 4 5 6 13 14 15	62.2 a.u.
2'F-ANA at 2 4 6 7 11 14	88.4 a.u.
2'F-ANA at 1 3 4 6 10 13 14 15	59.2 a.u.
2'F-ANA at 1 2 3 5 7 8 9 11	58.6 a.u.
2'F-ANA at 1 2 3 4 5 10 12 13 15	45.7 a.u.
2'F-ANA at 3 6 8	1120 a.u.
2'F-ANA at 2 3 4 5 7 11 13 15	63 a.u.
2'F-ANA at 1 3 6 8 9 10 13 15	89.1 a.u.

Excerpt of the above (sample 3):
Sequence	7-mer Z-score
UUAUCUG	-0.296
AAUAACA	0.452
CACAGGU	-0.117
AAGCUAG	0.187
AGCUCUA	-0.0663
CCCGUCG	-0.51
